Measured values pooled from the literature.
Every numbered part comes from another study and shows a few of its results, in no order.
UniProt Q8WTQ7, sequence (whole entry, looked up): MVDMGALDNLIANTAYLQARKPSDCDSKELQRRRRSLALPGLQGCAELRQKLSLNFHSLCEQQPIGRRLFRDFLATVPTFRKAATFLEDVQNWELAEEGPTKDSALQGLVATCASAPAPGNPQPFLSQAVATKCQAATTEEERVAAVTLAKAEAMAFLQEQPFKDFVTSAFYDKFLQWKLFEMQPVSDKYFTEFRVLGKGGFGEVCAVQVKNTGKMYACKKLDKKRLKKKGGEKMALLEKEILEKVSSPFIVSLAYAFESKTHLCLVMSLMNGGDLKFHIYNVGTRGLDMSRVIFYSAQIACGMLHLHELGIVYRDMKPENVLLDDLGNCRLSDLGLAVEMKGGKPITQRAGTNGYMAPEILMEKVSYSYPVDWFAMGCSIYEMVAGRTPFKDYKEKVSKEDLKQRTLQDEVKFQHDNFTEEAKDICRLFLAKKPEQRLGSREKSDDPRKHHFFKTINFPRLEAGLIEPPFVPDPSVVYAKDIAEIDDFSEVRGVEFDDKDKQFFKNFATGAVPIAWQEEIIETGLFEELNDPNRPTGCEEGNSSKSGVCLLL
UniProt Q15349, sequence (whole entry, looked up): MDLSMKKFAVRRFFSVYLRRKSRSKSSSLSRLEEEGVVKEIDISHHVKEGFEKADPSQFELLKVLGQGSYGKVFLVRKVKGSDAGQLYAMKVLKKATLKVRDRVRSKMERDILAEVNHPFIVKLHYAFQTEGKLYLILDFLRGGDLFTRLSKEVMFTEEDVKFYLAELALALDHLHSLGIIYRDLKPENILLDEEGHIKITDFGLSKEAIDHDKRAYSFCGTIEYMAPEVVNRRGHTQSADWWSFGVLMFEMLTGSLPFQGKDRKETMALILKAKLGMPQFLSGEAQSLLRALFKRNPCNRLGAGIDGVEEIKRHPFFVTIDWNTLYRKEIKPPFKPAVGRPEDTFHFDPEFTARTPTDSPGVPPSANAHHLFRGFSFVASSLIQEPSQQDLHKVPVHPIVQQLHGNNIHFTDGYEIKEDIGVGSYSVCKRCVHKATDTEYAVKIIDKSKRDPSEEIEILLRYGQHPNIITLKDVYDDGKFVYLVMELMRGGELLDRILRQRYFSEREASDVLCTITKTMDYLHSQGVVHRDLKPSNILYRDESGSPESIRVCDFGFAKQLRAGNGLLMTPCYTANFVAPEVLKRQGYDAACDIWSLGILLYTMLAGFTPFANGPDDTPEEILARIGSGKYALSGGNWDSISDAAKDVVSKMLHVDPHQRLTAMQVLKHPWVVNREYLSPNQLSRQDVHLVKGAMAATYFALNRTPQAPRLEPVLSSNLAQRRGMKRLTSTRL
UniProt Q6PHR2, sequence (whole entry, looked up): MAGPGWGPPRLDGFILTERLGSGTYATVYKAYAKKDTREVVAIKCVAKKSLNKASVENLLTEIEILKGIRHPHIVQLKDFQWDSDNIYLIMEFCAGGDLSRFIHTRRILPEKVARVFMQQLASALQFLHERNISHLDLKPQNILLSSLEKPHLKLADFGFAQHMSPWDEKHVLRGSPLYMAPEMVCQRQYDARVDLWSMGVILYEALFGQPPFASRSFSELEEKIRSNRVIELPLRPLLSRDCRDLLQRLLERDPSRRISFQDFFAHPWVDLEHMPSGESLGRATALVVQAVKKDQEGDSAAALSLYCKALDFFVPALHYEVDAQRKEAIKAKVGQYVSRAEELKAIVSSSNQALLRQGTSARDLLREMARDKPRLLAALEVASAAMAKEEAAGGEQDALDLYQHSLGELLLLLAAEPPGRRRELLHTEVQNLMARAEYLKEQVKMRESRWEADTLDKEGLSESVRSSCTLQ
UniProt Q13557, sequence (whole entry, looked up): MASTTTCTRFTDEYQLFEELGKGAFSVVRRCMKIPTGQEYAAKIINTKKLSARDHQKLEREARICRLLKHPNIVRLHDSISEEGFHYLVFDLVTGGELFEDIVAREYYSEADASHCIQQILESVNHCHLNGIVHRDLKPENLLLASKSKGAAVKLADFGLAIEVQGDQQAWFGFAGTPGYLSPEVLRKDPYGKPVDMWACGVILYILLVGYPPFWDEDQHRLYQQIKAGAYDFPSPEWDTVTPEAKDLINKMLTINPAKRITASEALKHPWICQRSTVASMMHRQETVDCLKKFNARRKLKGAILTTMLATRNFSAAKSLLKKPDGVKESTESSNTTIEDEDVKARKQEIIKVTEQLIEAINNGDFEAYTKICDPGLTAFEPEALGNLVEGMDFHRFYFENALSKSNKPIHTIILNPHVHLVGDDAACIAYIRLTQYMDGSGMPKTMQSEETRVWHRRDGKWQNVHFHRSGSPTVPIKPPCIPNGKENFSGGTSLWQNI
UniProt Q12866, sequence (whole entry, looked up): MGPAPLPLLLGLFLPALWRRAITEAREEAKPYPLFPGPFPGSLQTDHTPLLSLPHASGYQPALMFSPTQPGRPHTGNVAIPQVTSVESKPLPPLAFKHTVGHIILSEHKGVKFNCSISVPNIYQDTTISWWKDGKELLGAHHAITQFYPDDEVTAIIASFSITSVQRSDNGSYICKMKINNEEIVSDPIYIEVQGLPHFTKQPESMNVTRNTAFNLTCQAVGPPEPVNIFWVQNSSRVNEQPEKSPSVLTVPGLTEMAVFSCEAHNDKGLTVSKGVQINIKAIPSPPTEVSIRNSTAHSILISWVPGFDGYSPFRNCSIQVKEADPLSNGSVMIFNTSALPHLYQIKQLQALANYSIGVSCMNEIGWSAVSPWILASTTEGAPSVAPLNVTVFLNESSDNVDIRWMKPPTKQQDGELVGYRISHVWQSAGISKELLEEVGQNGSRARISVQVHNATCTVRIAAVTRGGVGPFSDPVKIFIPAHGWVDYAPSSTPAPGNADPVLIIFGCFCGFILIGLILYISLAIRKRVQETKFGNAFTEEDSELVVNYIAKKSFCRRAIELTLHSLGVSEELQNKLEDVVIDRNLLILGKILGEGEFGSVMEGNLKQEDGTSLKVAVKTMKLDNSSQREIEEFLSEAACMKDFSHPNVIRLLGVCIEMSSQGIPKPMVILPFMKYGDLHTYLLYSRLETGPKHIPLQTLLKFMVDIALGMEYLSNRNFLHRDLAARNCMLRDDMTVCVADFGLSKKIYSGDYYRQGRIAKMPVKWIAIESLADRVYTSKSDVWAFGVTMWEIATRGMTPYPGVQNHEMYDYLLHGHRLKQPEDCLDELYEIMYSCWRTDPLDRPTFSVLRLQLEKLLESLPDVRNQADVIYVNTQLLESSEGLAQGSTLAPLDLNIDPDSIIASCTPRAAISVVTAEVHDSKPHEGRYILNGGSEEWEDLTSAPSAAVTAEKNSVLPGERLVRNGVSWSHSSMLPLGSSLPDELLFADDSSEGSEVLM
UniProt Q99558, sequence (whole entry, looked up): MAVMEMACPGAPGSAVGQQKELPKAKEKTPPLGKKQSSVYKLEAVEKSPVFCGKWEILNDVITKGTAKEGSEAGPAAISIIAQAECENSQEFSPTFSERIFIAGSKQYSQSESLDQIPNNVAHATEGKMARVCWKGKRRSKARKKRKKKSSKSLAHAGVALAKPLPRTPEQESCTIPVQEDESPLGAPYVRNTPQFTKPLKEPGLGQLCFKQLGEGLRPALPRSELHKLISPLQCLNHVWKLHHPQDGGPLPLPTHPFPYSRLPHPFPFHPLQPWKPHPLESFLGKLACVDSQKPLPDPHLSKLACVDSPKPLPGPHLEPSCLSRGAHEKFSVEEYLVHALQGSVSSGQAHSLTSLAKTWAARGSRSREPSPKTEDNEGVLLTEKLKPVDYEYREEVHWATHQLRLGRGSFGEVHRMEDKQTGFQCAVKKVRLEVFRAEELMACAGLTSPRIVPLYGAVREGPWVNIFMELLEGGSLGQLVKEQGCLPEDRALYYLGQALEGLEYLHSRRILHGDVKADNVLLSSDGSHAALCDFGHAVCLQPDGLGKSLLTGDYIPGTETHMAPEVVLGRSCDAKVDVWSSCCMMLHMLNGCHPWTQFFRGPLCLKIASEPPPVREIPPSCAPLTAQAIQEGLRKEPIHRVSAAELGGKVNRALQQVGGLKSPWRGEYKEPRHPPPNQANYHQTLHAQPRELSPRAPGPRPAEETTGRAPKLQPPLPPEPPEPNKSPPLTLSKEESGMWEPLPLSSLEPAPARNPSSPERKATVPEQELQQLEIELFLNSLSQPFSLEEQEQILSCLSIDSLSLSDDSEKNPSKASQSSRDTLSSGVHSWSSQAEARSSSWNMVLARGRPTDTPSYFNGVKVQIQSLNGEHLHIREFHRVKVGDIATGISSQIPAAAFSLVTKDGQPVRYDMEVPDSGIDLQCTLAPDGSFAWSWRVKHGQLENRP
UniProt P06239, sequence (whole entry, looked up): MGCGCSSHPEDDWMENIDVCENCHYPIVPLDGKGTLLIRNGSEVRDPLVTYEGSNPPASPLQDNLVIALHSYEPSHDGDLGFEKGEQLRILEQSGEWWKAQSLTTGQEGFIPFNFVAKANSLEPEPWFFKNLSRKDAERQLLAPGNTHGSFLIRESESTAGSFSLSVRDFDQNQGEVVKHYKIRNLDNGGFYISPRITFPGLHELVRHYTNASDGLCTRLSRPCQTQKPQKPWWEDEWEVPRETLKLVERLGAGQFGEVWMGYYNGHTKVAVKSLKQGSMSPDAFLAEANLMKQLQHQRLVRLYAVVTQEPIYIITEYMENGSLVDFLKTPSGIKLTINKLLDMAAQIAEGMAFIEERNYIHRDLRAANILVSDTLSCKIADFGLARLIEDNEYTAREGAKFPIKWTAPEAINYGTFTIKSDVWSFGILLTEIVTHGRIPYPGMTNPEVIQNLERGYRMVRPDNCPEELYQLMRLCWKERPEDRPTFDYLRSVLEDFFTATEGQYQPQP

Sample 1 — read-out: enzyme activity; action: inhibitor; concentration: 0.5 µM; relative to: control
Compound: NC(=O)c1ccc(N(C(N)=O)c2c(F)cccc2F)nc1-c1ccc(F)cc1F
| target | remaining activity [%] |
| --- | --- |
| RPS6KA2 (Homo sapiens, UniProt Q15349) | 97.5 |
| MAPKAPK2 (Homo sapiens, UniProt P49137) | 98.9 |
| ABL2 (Homo sapiens, UniProt P42684) | 100 |
| NEK6 (Homo sapiens, UniProt Q9HC98) | 90.5 |
| MAP3K14 (Homo sapiens, UniProt Q99558) | 114 |
| MERTK (Homo sapiens, UniProt Q12866) | 114 |
| GSK3B (Homo sapiens, UniProt P49841) | 101 |
| EPHA3 (Homo sapiens, UniProt P29320) | 97 |
| ACVR1B (Homo sapiens, UniProt P36896) | 113 |
| FGFR1 (Homo sapiens, UniProt P11362) | 99 |
| ULK3 (Homo sapiens, UniProt Q6PHR2) | 101 |
| MAP2K2 (Homo sapiens, UniProt P36507) | 92.3 |
| GRK7 (Homo sapiens, UniProt Q8WTQ7) | 108 |
| LCK (Homo sapiens, UniProt P06239) | 86.3 |

Sample 2 — technique: competition with immobilised ligand; concentration: 1 µM
SMILES: C[C@H](c1ccc(F)cc1)N(Cc1cccc(C(=O)O)c1)C(=O)c1cnc2ccccc2c1
| target | test | remaining binding [%] |
| --- | --- | --- |
| CSNK1E (Homo sapiens, UniProt P49674) | cell-free assay | 100 |
| CDK11A (Homo sapiens, UniProt Q9UQ88) | binding | 100 |
| CDKL2 (Homo sapiens, UniProt Q92772) | binding | 100 |
| IKBKE (Homo sapiens, UniProt Q14164) | cell-free assay | 79 |
| CAMK4 (Homo sapiens, UniProt Q16566) | cell-free assay | 100 |
| CAMK2D (Homo sapiens, UniProt Q13557) | cell-free assay | 100 |
| STK39 (Homo sapiens, UniProt Q9UEW8) | cell-free assay | 82 |

Sample 3 — technique: aptamer microarray, sandwich; form: DNA with 2'F-ANA; medium: in vitro; concentration: 200 nM; with: Cy3 exosite-II aptamer, 400 nM; direction: higher = stronger binding; strand: GGTTGGTGTGGTTGG
Target: Prothrombin, mature alpha-thrombin (F2, Homo sapiens, UniProt P00734)
Notes: whole 15-mer aptamer, many near background
| Modification | mean fluorescence intensity |
| --- | --- |
| 2'F-ANA at 3 4 5 7 8 11 12 13 15 | 109 a.u. |
| 2'F-ANA at 1 2 3 9 12 14 15 | 105 a.u. |
| 2'F-ANA at 1 2 3 4 10 11 12 14 15 | 50.8 a.u. |
| 2'F-ANA at 1 3 9 12 13 | 435 a.u. |
| 2'F-ANA at 2 3 6 7 9 12 13 14 15 | 325 a.u. |
| 2'F-ANA at 1 2 4 5 7 10 12 13 14 | 48.8 a.u. |
| 2'F-ANA at 1 2 3 4 6 9 12 13 14 15 | 66.7 a.u. |
| 2'F-ANA at 3 4 5 6 7 8 9 10 13 14 15 | 49.5 a.u. |

Further values, each from its own experiment — technique: nitrocellulose filter binding; form: RNA; medium: in vitro; concentration: 100 nM; relative to: round 9 selected pool; direction: higher = stronger binding
Target: SMN1, full length (human, UniProt Q16637, residues 1-294)
UniProt Q16637, sequence (whole entry, looked up): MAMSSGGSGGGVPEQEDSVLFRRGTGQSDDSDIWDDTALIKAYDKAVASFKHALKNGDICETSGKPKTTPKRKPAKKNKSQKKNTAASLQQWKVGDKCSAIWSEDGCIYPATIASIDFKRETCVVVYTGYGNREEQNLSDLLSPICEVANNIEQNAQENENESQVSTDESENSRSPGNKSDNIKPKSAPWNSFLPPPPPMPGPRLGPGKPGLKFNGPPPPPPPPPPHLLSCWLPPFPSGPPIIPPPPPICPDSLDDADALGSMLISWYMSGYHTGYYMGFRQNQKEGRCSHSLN
Notes: whole RNA, constant flanks, single concentration, ends assumed
| Strand | relative RNA binding |
| --- | --- |
| GGGCUCACCACGCACCGUGCCGGCUUGUCCGUGUUUGGGGCCUCACCACGGCAAGCU | 86 % of pool |
| GGGCUCACCACGCACUGUGCGCCUUCCCGUGUAGUACUGGCCUCACCACGGCAAGCU | 74 % of pool |

A few entries again (sample 3):
| Modification | mean fluorescence intensity |
| --- | --- |
| 2'F-ANA at 3 4 5 7 8 11 12 13 15 | 109 a.u. |
| 2'F-ANA at 1 2 3 9 12 14 15 | 105 a.u. |
| 2'F-ANA at 1 2 3 4 10 11 12 14 15 | 50.8 a.u. |
